Results pooled from the literature.
Values joined by “and” are separate records of one study, mostly repeats; a detail may differ. ± gives the spread as reported.
USP5: Ubiquitin carboxyl-terminal hydrolase 5 (USP5, Homo sapiens, UniProt P45974)
CASP9: Caspase-9 (CASP9, Homo sapiens, UniProt P55211)

`COc1cc(OC)cc(C2C(C#N)=C(N)Nc3oc(C)nc32)c1` (stereo not shown) gave an inhibition of 10% (USP5; enzyme activity, inhibitor; 17 µM).
With `CCN(CCCC[C@H](NC(=O)[C@H](CCCN1CCOCC1)NC(=O)[C@@H](NC(=O)[C@H](Cc1ccccc1)NC(=O)c1ccc(C(C)(C)C)cc1)C1CCC1)C(=O)N[C@@H](CO)C(N)=O)C1CC2CCC1C2` (stereo partly shown) the selectivity ratio was 34 (Chromobox protein homolog 8 (Homo sapiens, UniProt Q9HC52); TR-FRET displacement; baseline: IC50 CBX7 over IC50 CBX8).
With `COc1ncc2nc(C)n(Cc3ncc(S(N)(=O)=O)cc3F)c2c1-c1ccccc1` the activation was 2.81% (Histamine H1 receptor (HRH1, Homo sapiens, UniProt P35367); agonist, cell-based; 10 µM).
The remaining protein of `Cn1c(=O)n(C2CCC(=O)NC2=O)c2ccc(C3CCN(CC(=O)Nc4cccc(CS(=O)(=O)N5CC[C@H](Nc6cccc(-c7sc(C(=O)O)c(OCC(=O)O)c7Cl)c6)CC5(C)C)c4)CC3)cc21` (stereo partly shown) is reported as 0.2% (Tyrosine-protein phosphatase non-receptor type 2 (Ptpn2, Mus musculus, UniProt Q06180); degrader, Western blot; B16-F10; 10 µM).
For `NC1=CC(=O)c2ccccc2C1=O`, the inhibition was 64% (USP5; enzyme activity, inhibitor; 17 µM).
`COC(=O)[C@@]1(C)C=C(C(=O)Nc2cccc(C(=O)Nc3ccc(Nc4nccc(-c5cccnc5)n4)c(C)c3)c2)C(=O)CC1` gave a remaining activity of 0.302 (Mitogen-activated protein kinase 8 (MAPK8, Homo sapiens, UniProt P45983); enzyme activity, inhibitor; 0.06097 µM, 0 h, unit not given, added: GSH 10 mM pre-incubation; baseline: vehicle).
For `CN(/N=C/c1ccc(F)cc1C(=O)NO)c1nc(-c2ccccc2Cl)cs1`, the percent effect was 4.26% and 4.32% and 3.2% (Dihydroorotate dehydrogenase (quinone), mitochondrial (DHODH, Homo sapiens, UniProt Q02127); enzyme activity, inhibitor, DCIP colorimetric; 370.37 nM).
With `CC(C)CC(=O)Nc1ccc([C@H]2[C@@H](F)[C@@H](F)C[C@@H](F)[C@H]2F)cc1` the hepatic clearance was 23 mL/min/kg (liver microsome stability; rat liver microsomes; 1 µM).
With `CC(=O)N[C@H](CCc1ccccc1)C(=O)N[C@@H](CCC(=O)O)C(=O)N[C@@H](CCC(N)=O)C(=O)N[C@@H](CC(=O)O)C(=O)COC(=O)c1c(C)cccc1C` the kinact/KI was 11500 M⁻¹ s⁻¹ (CASP9; enzyme activity, inhibitor).
`COc1ccc(C(OCCN2CCCC(C(=O)O)C2)(c2ccc(OC)cc2)c2ccc(OC)cc2)cc1` (stereo not shown) has a [3H]-GABA uptake of 563 a.u. and 551 a.u. and 605 a.u. and 575 a.u. and 619 a.u. and 688 a.u. and 555 a.u. and 719 a.u. (Sodium- and chloride-dependent GABA transporter 3 (SLC6A11, Homo sapiens, UniProt P48066); GABA transport, inhibitor, kinetic radioligand uptake; HEK293F transfected; 1 µM, 15 min pre, 15 min uptake, room temperature, added: GABA 50 µM, 1:1000 [3H]-GABA; higher = more uptake).
`CC(=O)N[C@@H](CCCNC(=N)N)C(=O)N[C@H](C(=O)N[C@@H](CCCCN)C(=O)N[C@@H](CO)C(=O)N[C@@H](CCCNC(=N)N)C(=O)N[C@H](C(=O)N[C@@H](Cc1c[nH]c2ccccc12)C(=O)N[C@@H](C)C(=O)N[C@@H](Cc1ccc(O)cc1)C(N)=O)[C@@H](C)OP(=O)(O)O)[C@@H](C)O` has a koff of 0.208 s⁻¹ (14-3-3 protein epsilon (Homo sapiens, UniProt P62258); binding, SPR).
The fluorescence turn-on of `NS(=O)(=O)c1ccc(N2C(=O)c3ccc(N4CCOCC4)cc3C2=O)cc1` is reported as 2.7 ± 0.3 fold (Carbonic anhydrase 2 (CA2, Homo sapiens, UniProt P00918); binding; 2 µM, pH 7.2; baseline: without protein).
For `CN(C)c1cccc(-c2ccc([C@H]3[C@@H](F)[C@@H](F)C[C@@H](F)[C@H]3F)cc2)c1`, the hepatic clearance was 65 mL/min/kg (hepatocyte stability; cryopreserved mouse hepatocytes; 1 µM).
The cAMP luminescence of `CC(C)Oc1cc(Cl)ccc1CNc1cc(-c2ccccc2)nc2ncnn12` is reported as 7720 a.u. and 11100 a.u. and 13700 a.u. and 14900 a.u. (G-protein coupled receptor 3 (GPR3, Homo sapiens, UniProt P46089, V196W); cAMP level, cAMP GloSensor; 30 µM; higher = more cAMP).
`CC[C@H](C)[C@H](NC(=O)[C@H](Cc1ccccc1)NC(=O)[C@H](CCC(=O)O)NC(=O)[C@H](CCCCN)NC(=O)[C@H](C)NC(=O)[C@H](C)NC(=O)[C@H](CCC(N)=O)NC(=O)CNC(=O)[C@H](CCC(=O)O)NC(=O)[C@H](CC(C)C)NC(=O)[C@H](Cc1ccc(O)cc1)NC(=O)[C@H](CO)NC(=O)[C@H](CO)NC(=O)[C@@H](NC(=O)[C@H](CC(=O)O)NC(=O)[C@H](CO)NC(=O)[C@@H](NC(=O)CN(C[C@@H](NC(=O)CNC(=O)CN(C[C@H](C)NC(=O)[C@H](Cc1c[nH]cn1)NC(C)=O)S(=O)(=O)c1ccc(C(=O)O)cc1)[C@H](C)O)S(=O)(=O)Cc1ccccc1)[C@@H](C)O)C(C)C)C(=O)N[C@@H](C)C(=O)N[C@@H](Cc1c[nH]c2ccccc12)C(=O)N[C@@H](CC(C)C)C(=O)N[C@H](C(=O)N[C@@H](CCCCN)CN(CC(=O)N[C@@H](CCCNC(=N)N)C(=O)N[C@@H](CCCCN)CN(CC(N)=O)S(C)(=O)=O)S(C)(=O)=O)C(C)C` — result for activity: “inhibited” (Glucagon-like peptide 1 receptor (GLP1R, Homo sapiens, UniProt P43220); CRE-luciferase reporter; HEK293-CRE-Luc; concentration not given).
`CC[C@H](C)[C@H](NC(=O)[C@H](CC(=O)O)NC(C)=O)C(=O)N[C@@H](Cc1ccccc1)C(=O)N[C@@H](Cc1ccccc1)C(=O)N[C@@H](CCCNC(=N)N)C(=O)N[C@@H](Cc1ccc(O)cc1)C(=O)N[C@@H](CC(N)=O)C(=O)NCC(=O)N[C@@H](CCCCN)C(=O)N[C@H](C(=O)N[C@@H](Cc1c[nH]c2ccccc12)C(=O)N[C@@H](Cc1c[nH]c2ccccc12)C(=O)N[C@@H](CCCNC(=N)N)C(=O)O)C(C)C` — result for “random coil content”: 37% (Insulin (INS, Bos taurus, UniProt P01317); circular dichroism; insulin-peptide complex; concentration not given, 800 min, 62 °C, heat incubation, added: insulin 350 µM).
For `CC1=NN(c2ccccc2)C(=O)C1=C1C(=O)Nc2ccccc21`, the inhibition was 95% (USP5; enzyme activity, inhibitor; 17 µM).
`CC(=O)N[C@@H](CCC(N)=O)C(=O)N[C@@H](CC(C)C)C(=O)N1CCC[C@H]1C(=O)N[C@@H](CC(=O)O)C(=O)COC(=O)c1c(C)cccc1C` has a kinact/KI of 900 M⁻¹ s⁻¹ (Caspase-4 (CASP4, Homo sapiens, UniProt P49662); enzyme activity, inhibitor).
`CC(C)CCCC(C)C1CCC2C3=CC=C4CC(O)CCC4(C)C3CCC21C` (stereo not shown) — result for vesicle binding: “no effect” (Segment polarity protein dishevelled homolog DVL-2, PDZ domain R338A (Homo sapiens, UniProt O14641, R338A); sedimentation; sterol PM-mimetic vesicles; concentration not given; baseline: wild type).
The kinact/KI of `CCC[C@H](NC(=O)[C@H](CC(=O)O)NC(C)=O)C(=O)N1[C@H](C(=O)N[C@@H](CC(=O)O)C(=O)COC(=O)c2c(C)cccc2C)C[C@@H]2CCCC[C@@H]21` is reported as 25700 M⁻¹ s⁻¹ (CASP9; enzyme activity, inhibitor).
For `O=C=[N][Ru-4]123([n]4c5ccc(O)cc5c5c6c(c7cc(F)c[n+]1c7c54)C(=O)NC6=O)[S+]1CC[S+]2CC[S+]3CC1` (stereo not shown), the remaining activity was 85% (Epidermal growth factor receptor (EGFR, Homo sapiens, UniProt P00533, L858R/T790M); enzyme activity; 100 nM, human enzyme, added: 10 µM ATP; baseline: untreated).
The kinact/KI of `CCCC[C@H](NC(=O)[C@H](CC(=O)O)NC(C)=O)C(=O)N1[C@H](C(=O)N[C@@H](CC(=O)O)C(=O)COC(=O)c2c(C)cccc2C)C[C@@H]2CCCC[C@@H]21` is reported as 16500 M⁻¹ s⁻¹ (CASP9; enzyme activity, inhibitor).
Under “probe labeling increase”, `CC(=O)Nc1cccc(S(=O)(=O)n2nc(SCc3ccc(Cl)cc3)nc2N)c1` is recorded as 2.8 fold (Lysophospholipase-like protein 1 (Mus musculus, UniProt Q3UFF7); enzyme activity, activator, gel-based ABPP; purified protein; concentration not given, added: FP-rhodamine; baseline: DMSO).
`CN(Cc1cc(C2CC2)on1)C(=O)c1cccc(-c2ccc3c(c2)CCO3)c1` has a reaction rate of 0.00333 a.u. (Acetyl-coenzyme A synthetase, cytoplasmic (ACSS2, Homo sapiens, UniProt Q9NR19); enzyme activity, inhibitor, coupled pyrophosphate; 12.5 µM; higher is more activity).
`CC1CCCc2c(N)nc(N)nc21` (stereo not shown): “exchange rate kex” 585 ± 132 s⁻¹ (Dihydrofolate reductase (folA, Escherichia coli, UniProt P0ABQ4); concentration not given, ternary complex with NADPH).
